{"data": "Measured values from different studies", "note": "Every numbered part comes from another study and shows a few of its results, in no order. Positions count from the first letter of the parent shown."}
{"data": "Series 1", "target": "Ras GTPase-activating protein-binding protein 1, full length (G3BP1, Homo sapiens, UniProt Q13283)", "method": "RNA Bind-n-Seq", "form": "RNA", "matrix": "in vitro", "concentration": "200 nM", "setting": "whole 134-nt RNA, ends assumed", "together with": "150 mM KCl", "baseline": "input library", "reading": "higher = stronger binding", "constant ends, left off below": "GGGAGUUCUACAGUCCGACGAUC … UGGAAUUCUCGGGUGUCAAGG", "sequence of UniProt Q13283 (whole entry, looked up)": "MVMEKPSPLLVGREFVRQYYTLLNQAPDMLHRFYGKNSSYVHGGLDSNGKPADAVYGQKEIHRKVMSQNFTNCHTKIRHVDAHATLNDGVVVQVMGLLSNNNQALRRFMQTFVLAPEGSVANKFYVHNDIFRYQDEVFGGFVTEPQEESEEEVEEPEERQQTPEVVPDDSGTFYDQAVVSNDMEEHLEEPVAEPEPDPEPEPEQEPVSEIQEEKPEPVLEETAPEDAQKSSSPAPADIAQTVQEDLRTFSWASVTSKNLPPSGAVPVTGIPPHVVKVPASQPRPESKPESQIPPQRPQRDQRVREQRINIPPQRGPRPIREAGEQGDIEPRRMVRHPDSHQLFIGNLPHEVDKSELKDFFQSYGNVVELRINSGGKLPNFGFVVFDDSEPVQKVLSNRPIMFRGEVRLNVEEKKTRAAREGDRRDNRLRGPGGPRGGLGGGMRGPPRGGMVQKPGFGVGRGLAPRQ"}
{"Sequence": "UCAAGUCCUGUGCUACACAUCGUAUGUACCGAAUCGGUUUGGUUUGGUUUGGGGAAAGUAUUAUGUUACGCCGUUCGGAUCUGCACUUCC", "log2 enrichment": -0.704}
{"Sequence": "GUCCUGUGCUACACAUCGUAUGUACCGAAUCGGGAAAAAAAGGGAGGGAAAAAAAGGGAAAGUAUUAUGUUACGCCGUUCGGAUCUGCAC", "log2 enrichment": -0.229}
{"Sequence": "GUCCUGUGCUACACAUCGUAUGUACCGAAUCGGGUUUUUGGGAAAAAAAGGGAAAGGGAAAGUAUUAUGUUACGCCGUUCGGAUCUGCAC", "log2 enrichment": -0.596}
{"Sequence": "AGUCCUGUGCUACACAUCGUAUGUACCGAAUCGGGAAAAAGGGAAAAAGGGAAAGGGAAAGUAUUAUGUUACGCCGUUCGGAUCUGCACU", "log2 enrichment": -0.338}
{"Sequence": "CCUGUGCUACACAUCGUAUGUACCGAAUCGGGGUUUUUUUGGGUUUUUUUGGUUUUUUUGGAAAGUAUUAUGUUACGCCGUUCGGAUCUG", "log2 enrichment": -0.629}
{"Sequence": "UCCUGUGCUACACAUCGUAUGUACCGAAUCGGGGUUUUUGGGGAAAAAGGGGAAAGGGGAAAGUAUUAUGUUACGCCGUUCGGAUCUGCA", "log2 enrichment": 0.87}
{"Sequence": "CACAGACAACACGCACCCACACAGACACAGAGGGAAGGGGUUGGGAUGGGGACAGGGUGAACAGCAGGGCGGGGUAGGACCCCAGCCCCU", "log2 enrichment": 1.74}
{"Sequence": "UCAAGUCCUGUGCUACACAUCGUAUGUACCGAAUCGGGUGGGUGGGUUUUUGGGAAAGUAUUAUGUUACGCCGUUCGGAUCUGCACUUCC", "log2 enrichment": 0.469}
{"data": "Series 2", "target": "TAR DNA-binding protein 43, full length, His tag (TARDBP, Homo sapiens, UniProt Q13148, residues 1-414)", "method": "RNA Bind-n-Seq", "form": "RNA", "matrix": "in vitro", "concentration": "20 nM", "setting": "6-mer, flanks averaged, single round", "together with": "150 mM LiCl", "baseline": "input library", "reading": "higher = stronger binding"}
{"Sequence": "UUUGCU", "6-mer enrichment (R)": 1.15}
{"Sequence": "CGAGGG", "6-mer enrichment (R)": 1.1}
{"Sequence": "ACAAGG", "6-mer enrichment (R)": 0.894}
{"Sequence": "GCGUGA", "6-mer enrichment (R)": 1.15}
{"Sequence": "UAGGAC", "6-mer enrichment (R)": 0.938}
{"Sequence": "CUGAAG", "6-mer enrichment (R)": 0.877}
{"Sequence": "CAGUCG", "6-mer enrichment (R)": 0.89}
{"Sequence": "UACGUC", "6-mer enrichment (R)": 0.899}
{"data": "Series 3", "Molecule": "HSPA5 (Homo sapiens, UniProt P11021)", "method": "cross-linking MS", "setting": "hits only"}
{"partner": "HYOU1 (Homo sapiens, UniProt Q9Y4L1)", "interaction screen": "cross-linked"}
{"partner": "HSP90B1 (Homo sapiens, UniProt P14625)", "interaction screen": "cross-linked"}
{"partner": "MRC1 (Homo sapiens, UniProt P22897)", "interaction screen": "cross-linked"}
{"data": "Series 4", "target": "HLA class I histocompatibility antigen, A alpha chain, allele A*80:01 (Homo sapiens, UniProt P04439)", "effect on": "peptide-MHC binding", "form": "peptide", "concentration": "concentration not given"}
{"Sequence": "LTKEEFTRY", "binding": "inactive"}
{"Sequence": "ITMYVAFEQ", "binding": "inactive"}
{"Sequence": "GQMYNMNTL", "binding": "inactive"}
{"data": "Series 5", "target": "CCNB3, cyclin fold, Cln2 fusion (human)", "method": "yeast growth competition, sequencing", "matrix": "yeast", "setting": "strong parent motif", "baseline": "not given", "reading": "higher = stronger binding", "starting sequence": "viral docking peptide; YKVKRRLVFGADD"}
{"Variant": "A11G", "normalised enrichment score": 2.17}
{"Variant": "R6G", "normalised enrichment score": 0.0552}
{"Variant": "V3I", "normalised enrichment score": 1.18}
{"Variant": "R5S", "normalised enrichment score": 0.0817}
{"Variant": "R5Y", "normalised enrichment score": 0.144}
{"Variant": "A11H", "normalised enrichment score": 1.82}
{"Variant": "V3D", "normalised enrichment score": 0.111}
{"Variant": "A11R", "normalised enrichment score": 1.66}
{"Variant": "D12G", "normalised enrichment score": 1.72}
{"Variant": "D12F", "normalised enrichment score": 1.22}
{"Variant": "R6D", "normalised enrichment score": 0.179}
{"Variant": "R5Q", "normalised enrichment score": 0.393}
{"Variant": "K4Q", "normalised enrichment score": 0.513}
{"Variant": "R6V", "normalised enrichment score": 2.23}
{"Variant": "K4D", "normalised enrichment score": 0.059}
{"Variant": "D12Y", "normalised enrichment score": 1.32}
{"Variant": "R5K F9L", "normalised enrichment score": -0.0231}
{"Variant": "G10D", "normalised enrichment score": 3.21}
{"Variant": "F9K", "normalised enrichment score": -0.118}
{"note": "Some of these lines once more (series 3):"}
{"partner": "HYOU1 (Homo sapiens, UniProt Q9Y4L1)", "interaction screen": "cross-linked"}
{"partner": "HSP90B1 (Homo sapiens, UniProt P14625)", "interaction screen": "cross-linked"}
{"partner": "MRC1 (Homo sapiens, UniProt P22897)", "interaction screen": "cross-linked"}
